Measurements from different studies.
Parts stem from different laboratories: compare values within a part only. Substitutions count along the parent as printed.

Block 1
Target: CCNE1, cyclin fold, Cln2 fusion (human)
Method: yeast growth competition, sequencing
Sample: yeast
Notes: strong parent motif
Relative to: not given
Reading: higher = stronger binding
Starting sequence: RBL2 docking peptide (human); STTRRRLFVENDS
Variant	normalised enrichment score
STTRRRLFVCNDS [E10C]	3.23
STTRRRLYVENDS [F8Y]	0.257
STTRGRLFVENDS [R5G]	-0.043
MTTRRRLFVENDS [S1M]	5.53
STTRRRLFVENTS [D12T]	4.78
STTRRDLFVENDS [R6D]	0.374
STTRSRLFVENDS [R5S]	0.521
STTRRRHFVENDS [L7H]	0.142
STQRRRLFVENDS [T3Q]	0.42
SFTRRRLFVENDS [T2F]	5.36
STTRRRAFVENDS [L7A]	0.682
STWRRRLFVENDS [T3W]	5.82
STTRRHLFVENDS [R6H]	0.697
STTRRRLFVANDS [E10A]	3.21
STTGRRLFVENDS [R4G]	0.134
STTRRFLFVENDS [R6F]	0.993
STCRRRLFVENDS [T3C]	7.24
STTRRRLFVENDA [S13A]	6.06
STTRRRLFVENCS [D12C]	4.12
STTRRRPFVENDS [L7P]	0.158
STTRRRRFVENDS [L7R]	0.74

Block 2
Target: Histone acetyltransferase KAT6A, winged helix 2, GST fusion (KAT6A, Homo sapiens, UniProt Q92794, residues 85-181)
Method: protein binding microarray
Form: double-stranded DNA, one strand shown
Sample: in vitro
Tested at: not given
Notes: 8-mer, flanks averaged, mean of 2 arrays, mostly near background
Relative to: not given
Reading: higher = stronger binding
Residues (chain): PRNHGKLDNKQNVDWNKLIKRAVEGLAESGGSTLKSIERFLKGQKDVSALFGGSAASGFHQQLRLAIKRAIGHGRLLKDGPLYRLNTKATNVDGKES
Sequence	E-score
TCATACCA	0.0591
ATGAAGTC	-0.121
GGAATACA	-0.0573
TGGCAGAA	0.186
AAAAGTAA	0.0191
AAGCTAGG	-0.0895
CATAGTTA	-0.107
CTGAAAGC	0.0373
CAGTGCAC	-0.0258
CTGGTCGC	0.0781
AACCGTCA	-0.0211
CTCGCCTC	0.102
CCTGTATA	-0.199
AGTTGATA	0.0129
ATATTGAC	-0.0118
CACACCAC	-0.0207
CCGTCGCC	0.201
AATGACCC	-0.25
CTCGTCTC	-0.0222
GATGTTCA	-0.199
ACACTGAC	-0.0501
ATCAAGAT	0.0311
AACGAATC	-0.0645
GACACTAA	0.0616
ACCGCACG	0.148

Block 3
Target: RING finger protein unkempt homolog, zinc fingers 1-6, GST-SBP tag (UNK, Homo sapiens, UniProt Q9C0B0, residues 30-357)
Method: RNA Bind-n-Seq
Form: RNA
Sample: in vitro
Tested at: not given
Notes: RNA with constant flanks, human and mouse sites, ends assumed
Relative to: input RNA pool
Reading: higher = stronger binding
Shared flanks, not repeated: GGGAGUUCUACAGUCCGACGAUC … CAACAGAGGAUUGAGCAUCA
Residues (chain): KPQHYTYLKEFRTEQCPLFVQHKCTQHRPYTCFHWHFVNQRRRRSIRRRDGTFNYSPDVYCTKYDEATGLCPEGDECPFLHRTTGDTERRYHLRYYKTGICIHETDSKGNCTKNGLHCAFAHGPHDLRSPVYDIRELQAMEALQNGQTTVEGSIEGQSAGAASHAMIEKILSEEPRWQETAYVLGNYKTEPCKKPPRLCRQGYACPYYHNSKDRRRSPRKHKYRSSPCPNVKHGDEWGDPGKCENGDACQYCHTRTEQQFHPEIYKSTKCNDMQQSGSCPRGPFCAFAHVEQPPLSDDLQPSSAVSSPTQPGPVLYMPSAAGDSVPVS
Sequence	bound/input enrichment
AAGGAACUGGAAGUACCUCAUUUUCACCAUGAGCUUGUAUAUGAAGCUAUUAUAAUGGUUUUAGAGUCAACUGGAGAAAGUACAUUUAAGAUGAUUUUGGAUUUAUUAAAGUCCCUUUGG	0.365 ratio
UAUGGUUAUGAAAAGCCAGAGGAACGCUGGCUCCCUAUCCACACUGUGGAAACCAUCAUGAUUAGUGUCAUUUCUAUGCUGGCAGACCCUAAUGGAGACUCACCUGCUAAUGUUGAUGCU	0.783 ratio
UGUGUAUGUACUGGCAGUAUUAAAUUUAUUCAUCAAGAAUGCUUAGUUCAGUGGUUGAAACAUAGUCGGAAAGAAUACUGUGAAUUAUGCAAGCACAGAUUUGCUUUCACACCAAUUUAU	1.01 ratio
ACAAAGACAGUCAUUAAAGAAGGUGAAGAACAGCUGCAGACUCAGCACCAGAAAACGUUCAUAGGGAAAAUUCCAAUUAUGCUGCGCUCCACCUACUGCCUGUUAAAUGGCUUAACAGAU	0.686 ratio
AGUAAAUCUGCAGAGGAGCCACAGGAAAAAGUUGACUUGACUCUAGAUUGGUUAACUGAAACCUCUGAAGAGGCAAAAGGAGGAGCAGCACCAGAAGGACCGAAUGAAGCUGAGGUCACU	0.145 ratio
GACUCCACAGAUUGUGAGUGUGUGAGUGUGUGUGUGAGUGAGAGAAAAAGAGAGAGAUGGUUAGUCUGUUUAACCUGUCUGUCUAUCUGUCAUUUCUUCCUCUGGACCUGGGGCAGCCAA	0.304 ratio
AAACAGAAGGUUUCGGAGUCCCUGAUGUUCUCUUUUCCUCCUGCUUUUAUCCCCUCUGCCUUCCUCCACAUGUUUCUCCUCAGGGCCACGUGGUCUUUGAUGCCAGCGGCUCCCGGAUGG	0.137 ratio
GAUACCGACGGGGGUUUUGUGCACUCGGACGGUGCCAUCUCCUGCCACGACAUGUUUGAUUUUCUGCAUCUGACAGGAGGGGGCUAUGCAAAGAUCUGCAAACCCCUGCAUGAACUGAUC	0.0342 ratio
CUCCCUGAUGACAUCAGCCAUGGCUAUGGCUGGUCCAUGUUCUGUGCAUGGGGGGGCCUGGGCCUCACACUCAUCUCGGGAUUCUUCUGUACCUUAGCCCCUUCUGUUCAACCUGUCCCG	0.121 ratio
UUUGUAAACUGAAAUUCUGUAUGUGUAAGAGAUGUUUAAAUAUGUUUGGGUCCUAAACAGCUUUUUAAAAUUAUACUUGGGAAUAAAUUCAGCAUCUUUUCAAAUAAACUCUAUGAAAGA	0.281 ratio
GUCCCAAACAUUUCUGUACAUCUGCUACAUGAACCCCCUGCACUGACUAAUGAAAUGUAUUGUUUGGUUGUGACUGUUCAGUCCCAUGAAAAGACCCAAAUCAGAGAUGUGAAGCUCACC	0.669 ratio

Block 4
Target: Eukaryotic initiation factor 4A-I (EIF4A1, Homo sapiens, UniProt P60842, residues 1-406, full length assumed)
Chain of UniProt P60842 (whole entry, looked up): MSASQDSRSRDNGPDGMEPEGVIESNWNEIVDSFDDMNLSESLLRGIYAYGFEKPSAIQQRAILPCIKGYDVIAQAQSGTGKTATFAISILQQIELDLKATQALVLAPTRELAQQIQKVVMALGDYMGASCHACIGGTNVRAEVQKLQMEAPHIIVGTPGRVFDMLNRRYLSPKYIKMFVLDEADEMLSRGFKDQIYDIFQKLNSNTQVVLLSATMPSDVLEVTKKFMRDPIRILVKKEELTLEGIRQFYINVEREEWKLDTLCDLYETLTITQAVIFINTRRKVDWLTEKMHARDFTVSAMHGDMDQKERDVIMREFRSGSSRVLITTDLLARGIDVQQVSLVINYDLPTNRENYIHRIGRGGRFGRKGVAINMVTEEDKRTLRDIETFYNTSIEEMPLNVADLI
Method: RNA Bind-n-Seq
Form: RNA
Sample: in vitro
Tested at: not given
Notes: 4-mer, random 30-nt RNA, single round
With: RocA, ADP, phosphate
Relative to: input library
Reading: higher = stronger binding
Sequence	4-mer enrichment
AAGG	1.35 fold
AGGU	1.19 fold
GCCU	0.621 fold
ACGC	0.627 fold
GGGU	1.09 fold
GGGG	1.22 fold
CUCC	0.499 fold
AACA	0.852 fold
UCGA	1.02 fold
ACUU	0.607 fold
UAAU	0.901 fold
GUUA	1.09 fold
UACA	0.738 fold
CACC	0.621 fold
UUAC	0.67 fold
UUUC	0.622 fold
GGGC	0.832 fold
CCCA	0.644 fold

Block 5
Target: Runt-related transcription factor 3, Runt domain (RUNX3, Homo sapiens, UniProt Q13761, residues 53-186)
Chain of UniProt Q13761 (53-186, looked up): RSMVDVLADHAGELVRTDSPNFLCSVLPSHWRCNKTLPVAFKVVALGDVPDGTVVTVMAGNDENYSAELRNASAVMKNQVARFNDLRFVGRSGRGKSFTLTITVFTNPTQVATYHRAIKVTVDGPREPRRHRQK
Method: protein-binding microarray
Form: hairpin DNA
Sample: in vitro
Tested at: not given
Notes: whole hairpin DNA, median over replicate spots
Relative to: not given
Reading: higher = stronger binding
Sequence	median fluorescence [a.u.]
GAGGCCCGACCGCAACAGCCTCCTGGCTGTTGCGGTCGGGCCTCACACTC	8710
GAGGCCTGTCGCGGTTGGCCTCCTGGCCAACCGCGACAGGCCTCACACTC (5mC at 12 32 34)	4910
GAGGCCTGTCGCGGTTGGCCTCCTGGCCAACCGCGACAGGCCTCACACTC (5mC at 10 32)	5030
CTCAGTTCTGGGGGCTGGACTCCTGTCCAGCCCCCAGAACTGAGACACTC (5mC at 34)	4160
CTCAGTTCTGTGGGCCGGACTCCTGTCCGGCCCACAGAACTGAGACACTC (5mC at 28)	4210
CTCAGTTCTGTGGGCGGGACTCCTGTCCCGCCCACAGAACTGAGACACTC (5mC at 15 29)	4450
CTCAGTTCTGCGGGCTGGACTCCTGTCCAGCCCGCAGAACTGAGACACTC	4830
GAGGCCTGCGGTGGTTGGCCTCCTGGCCAACCACCGCAGGCCTCACACTC (5mC at 9)	5590
GAGGCCGAACCGCAACAGCCTCCTGGCTGTTGCGGTTCGGCCTCACACTC (5mC at 38)	7120
GAGGCCCCGCCGCAACAGCCTCCTGGCTGTTGCGGCGGGGCCTCACACTC (5mC at 8 36)	5960
GAGGCCTGTCGTGGTTGGCCTCCTGGCCAACCACGACAGGCCTCACACTC (5mC at 10)	5860
CTCAGTTCTGTGGGCAGGACTCCTGTCCTGCCCACAGAACTGAGACACTC	4280
CTCAGTTCTGCGGGCTGGACTCCTGTCCAGCCCGCAGAACTGAGACACTC (5mC at 33)	4420
GAGGCCTGTTGTGGTTGGCCTCCTGGCCAACCACAACAGGCCTCACACTC (5mC at 32)	4460
GAGGCCTGTGGCGGTTGGCCTCCTGGCCAACCGCCACAGGCCTCACACTC	6120
CTCAGTTCTGTGGGCCGGACTCCTGTCCGGCCCACAGAACTGAGACACTC	4440
CTCAGTCGTGTGGGCTGGACTCCTGTCCAGCCCACACGACTGAGACACTC (5mC at 37)	4660
GAGGCCTGTCGCGGTTGCCCTCCTGGGCAACCGCGACAGGCCTCACACTC (5mC at 18)	6110
GAGGCCTGTTGTGGTTAGCCTCCTGGCTAACCACAACAGGCCTCACACTC	6160
GAGGCCCTACCGCAACAGCCTCCTGGCTGTTGCGGTAGGGCCTCACACTC	5880
GAGGCCCAACGGCAACAGCCTCCTGGCTGTTGCCGTTGGGCCTCACACTC (5mC at 34)	5000
GAGGCCTGTTGCGGTCGGCCTCCTGGCCGACCGCAACAGGCCTCACACTC (5mC at 16)	8270
